Results from different studies.
Several values in a cell are separate wells, animals, samples, runs or records. Numbers after ± are the reported error. In brackets after ≈: the same amount, converted by molar mass.

| Compound | target or system | test | system | setting | scale | measurement | value |
| --- | --- | --- | --- | --- | --- | --- | --- |
| C#Cc1ccc(O)c(C=NNC(=O)c2ccc(COC)cc2)c1 | Aspergillus fumigatus |  | 293 | unit not given, together with: voriconazole | lower = more synergy | FICI | 2 |
| CNC(=O)c1ccc(Nc2ncc(C(F)(F)F)c(NCc3nccnc3N(C)S(C)(=O)=O)n2)cc1 | murine hepatitis virus | viral replication, nanoluciferase reporter | DBT | 1 µM | reference: DMSO vehicle | inhibition | 19% |
| CC1(C)CC(=O)c2c(C(F)(F)F)nn(-c3ccc(C(N)=O)c(N[C@H]4CC[C@H](O)CC4)c3)c2C1 | human alphaherpesvirus 1 |  | K26 GFP, 3D skin equivalent, air-liquid |  | reference: CC50 over IC50 | selectivity index | > 250 |
| CC(=O)C1=CC[C@H]2[C@@H]3C=CC4=CC(=O)CC[C@]4(C)[C@H]3C[C@@H](O)[C@]12C | Leishmania mexicana | parasite growth, propidium iodide flow cytometry | promastigotes | 48 h |  | IC50 | 26.2 µM |
| Cc1c2c(nn1C)CSCc1cc(n(C)n1)CSc1cc(c3ccccc3c1)OCCCc1c(C(=O)O)n(C)c3c-2c(Cl)ccc13 | Staphylococcus aureus | label-free proteomics, refers to: tdcB | SA113 | concentration not given | reference: untreated | log2 fold change | -4.7 |
| C[C@H](N)C(=O)NCC(=O)N[C@H]1CSSC[C@@H](C(=O)O)NC(=O)[C@H](CO)NC(=O)[C@H]([C@@H](C)O)NC(=O)[C@H](Cc2ccccc2)NC(=O)[C@H]([C@@H](C)O)NC(=O)[C@H](CCCCN)NC(=O)[C@H](Cc2c[nH]c3ccccc23)NC(=O)[C@H](Cc2ccccc2)NC(=O)[C@H](Cc2ccccc2)NC(=O)[C@H](CC(N)=O)NC(=O)[C@H](CCCCN)NC1=O | Aspergillus fumigatus | Alamar blue |  | 20 µM |  | metabolic activity | 100% |
| CO[C@H]1C[C@@H]2CC[C@@H](C)[C@@](O)(O2)C(=O)C(=O)N2CCCC[C@H]2C(=O)O[C@H]([C@H](C)C[C@@H]2CC[C@@H](OC(=O)NCCOCCOCCOCCOCCOCCOCCOCCOCCC(=O)N3CCc4cc(Cn5nc(-c6ccc7oc(N)nc7c6)c6c(N)ncnc65)ccc4C3)[C@H](OC)C2)C[C@@H](O)[C@H](C)/C=C(\C)[C@@H](O)[C@@H](OC)C(=O)[C@H](C)C[C@H](C)/C=C/C=C/C=C/1C |  |  | patients with advanced solid tumours | intravenous, 12 mg weekly, grade 3 or higher |  | AE leading to dose reduction | 8.3% |
| CCCC(CCC)C(=O)Nc1ccccc1O | Artemia franciscana | LC-MS/MS metabolomics, refers to: 1-aminocyclopropanecarboxylic acid | larvae | concentration not given, 48 h, LC10 concentration | reference: vehicle | fold change | 1.76 |
| O=C(NCc1ccccc1)c1ccc(S(=O)(=O)NCc2ccccc2)cc1 | murine hepatitis virus | viral replication, nanoluciferase reporter | DBT | 1 µM | reference: DMSO vehicle | inhibition | 31% |
| Cn1c(=O)ccc2ccc(F)c(CCNC[C@H]3CN(c4cnc5c(n4)NC(=O)CO5)C(=O)O3)c21 | Morganella morganii |  |  |  |  | MIC90 | 0.5 µg/mL (≈ 1.07 µM) |
| Cc1cccc2c(-c3ccncc3)c(-c3ccc(F)cc3)nn12 | Aspergillus fumigatus |  |  | 20 µM | reference: untreated | metabolic activity | ≥ 80% |
| CS(=O)(=O)CCCn1c(Cn2c(=O)n(CC(F)(F)F)c3ccncc32)cc2cc(Cl)ccc21 | respiratory syncytial virus | RT-qPCR | hospitalized infants 1-24 months, nasal swab | oral, 8 mg/kg daily, day 5, cohort 6-24 months | reference: baseline | LS mean viral load change | -2.32 log10 copies/mL |
| OCCn1cc(-c2ccc3c(c2)CC/C3=N\O)c(-c2ccncc2)n1 | murine hepatitis virus | viral replication, nanoluciferase reporter | DBT | 1 µM, 10 h | reference: DMSO vehicle | inhibition | 18% |
| CC(=O)O[C@H]1C[C@H](O[C@H]2[C@@H](O)C[C@H](O[C@H]3[C@@H](O)C[C@H](O[C@H]4CC[C@@]5(C)[C@H](CC[C@@H]6[C@@H]5C[C@@H](O)[C@]5(C)[C@@H](C7=CC(=O)OC7)CC[C@]65O)C4)O[C@@H]3C)O[C@@H]2C)O[C@H](C)[C@H]1O[C@@H]1O[C@H](CO)[C@@H](O)[C@H](O)[C@H]1O | human alphaherpesvirus 1 |  | primary human fibroblasts, K26 GFP | CC50 capped at 10.00 µM | reference: CC50 over IC50 | selectivity index | > 125 |
| OC(Cn1cncn1)(Cn1cncn1)c1ccc(F)cc1F | Candida parapsilosis |  | CGMCC 2.399 | 48 h, 30 °C |  | MIC | 4 µM (≈ 1.23 µg/mL) |
| CCc1ccccc1C(=O)Nc1n[nH]c2c(C)c(F)c(C3C(C#N)=C(C)N(C)C(C)=C3C#N)cc12 | murine hepatitis virus | viral replication, nanoluciferase reporter | DBT | 1 µM, 10 h | reference: DMSO vehicle | inhibition | -4% |
| C[C@H](NC(=O)[C@H](CCCNC(=N)N)NC(=O)[C@H](Cc1c[nH]c2ccccc12)NC(=O)[C@H](CCCNC(=N)N)NC(=O)[C@H](Cc1c[nH]c2ccccc12)NC(=O)[C@H](Cc1c[nH]c2ccccc12)NC(=O)[C@H](Cc1c[nH]c2ccccc12)NC(=O)[C@H](CCCNC(=N)N)NC(=O)[C@H](Cc1c[nH]c2ccccc12)NC(=O)[C@@H](N)CCCNC(=N)N)C(N)=O | Candida albicans | broth microdilution | CGMCC 2.209, RPMI 1640-MOPS | 48 h, 30 °C, together with: FeCl3 4 µM |  | MIC | 8 µM (≈ 13.2 µg/mL) |

| Compound | target or system | test | system | setting | scale | measurement | value |
| --- | --- | --- | --- | --- | --- | --- | --- |
| Nc1ncnc2c1ncn2[C@@H]1O[C@@H]2COP(=O)(O)O[C@H]3[C@@H](O)[C@H](n4cnc5c(=O)[nH]cnc54)O[C@@H]3COP(=O)(O)O[C@H]2[C@H]1O | West Nile virus | RNA sequencing Reactome analysis, refers to: M Phase (R-HSA-68886) | HFF-1 | concentration not given, upregulated pathways, together with: West Nile virus infection | reference: WNV-infected without compound | fold enrichment | 2.7 |
| COC(=O)C1=C(C)NC(C)=C(C(=O)OC(C)(C)CN(C)CCC(c2ccccc2)c2ccccc2)C1c1cccc([N+](=O)[O-])c1 (stereo not shown) | Aspergillus fumigatus | Alamar blue |  | 3.95 µg/mL, 48 h, together with: caspofungin 0.2 µg/mL |  | metabolic activity | 41.8% and 34.3% |
| CC[C@H](C)C[C@H](C)CCCCCCCCC(=O)N[C@H]1C[C@@H](O)[C@@H](NCCN)NC(=O)[C@@H]2[C@@H](O)CCN2C(=O)[C@H]([C@H](O)CCN)NC(=O)[C@H]([C@H](O)[C@@H](O)c2ccc(O)cc2)NC(=O)[C@@H]2C[C@@H](O)CN2C(=O)[C@H]([C@@H](C)O)NC1=O | Candida parapsilosis | broth dilution | ATCC 22099 | 48 h, 37 °C |  | MFC | 4 µg/mL (≈ 3.66 µM) |
| COc1cc2c(Oc3ccc4[nH]c(C)cc4c3F)ccnc2cc1OCC1(N)CC1 |  |  | paediatric recurrent refractory sarcoma | 8 mg/kg |  | grade 1 or 2 Dizzy | 13.3% |
| COc1ccc2c(ccc3oc([N+](=O)[O-])c(OC)c32)c1 | Enterobacter cloacae | REMA |  |  |  | MIC90 | > 32 µg/mL |
| CN1CCN(Cc2ccc(Nc3ncc(Cl)c(Nc4ccccc4S(=O)(=O)N(C)C)n3)cc2)CC1 | murine hepatitis virus | viral replication, nanoluciferase reporter | DBT | 1 µM, 10 h | reference: DMSO vehicle | inhibition | 30% |
| CNCC(=O)N[C@@H](CO)C(=O)N[C@H]1[C@H](O)[C@@H](O)[C@H](n2ccc(N)nc2=O)O[C@@H]1C(N)=O | Tobacco mosaic virus | protective activity | plant in vivo |  |  | EC50 | 271 ± 2.8 µg/mL (≈ 611 µM) |
| COc1cc2oc([N+](=O)[O-])cc2c2ccccc12 | Mycobacterium avium subsp. hominissuis | REMA | ATCC 25291 |  |  | MIC90 | 4 µg/mL (≈ 16.4 µM) |
| Nc1ncnc2c([C@@H]3N[C@H](CO)[C@@H](O)[C@H]3O)c[nH]c12 | Measles morbillivirus | viral replication | Vero 76, Chicago | 3 µM |  | inhibition | 26.4% |
| CC[C@H](C)[C@H](NC(=O)[C@H](C)NC(=O)[C@H](CCCCN)NC(=O)[C@H](CC(C)C)NC(=O)[C@H](C)NC(=O)[C@@H](NC(=O)[C@H](Cc1c[nH]cn1)NC(=O)[C@H](CC(C)C)NC(=O)[C@@H](NC(=O)[C@@H](NC(=O)[C@H](CCCCN)NC(=O)[C@H](C)NC(=O)[C@H](C)NC(=O)[C@H](CO)NC(=O)[C@H](CCCCN)NC(=O)[C@H](Cc1ccccc1)NC(=O)[C@@H](NC(=O)[C@H](CCCCN)NC(=O)[C@H](CC(C)C)NC(=O)[C@H](Cc1ccccc1)NC(=O)[C@H](CO)NC(=O)[C@H](CCCCN)NC(=O)[C@H](Cc1c[nH]c2ccccc12)NC(=O)[C@H](CCCCN)NC(C)=O)[C@@H](C)O)[C@@H](C)O)C(C)C)[C@@H](C)O)C(=O)N[C@@H](CO)C(=O)N[C@@H](CO)C(N)=O | Klebsiella pneumoniae |  |  | 80 strains |  | MBC50 | 8 µg/mL (≈ 2.73 µM) |
| N#Cc1ccc2c(ccc3oc([N+](=O)[O-])cc32)c1 | Enterobacter cloacae | REMA |  |  |  | MIC90 | 32 µg/mL (≈ 134 µM) |
| CS(=O)(=O)N1CCCC(NC(=O)[C@H](CCC2CCCCC2)NC(=O)c2ccc(CNc3ncnc4c3nnn4-c3ccccc3)cc2)C1 (stereo partly shown) | murine hepatitis virus | viral replication, nanoluciferase reporter | DBT | 1 µM, 10 h | reference: DMSO vehicle | inhibition | 0% |
| CC(=O)C1=CC[C@H]2[C@@H]3CCC4=CC(=O)CC[C@]4(C)[C@H]3C[C@@H](O)[C@]12C | Leishmania mexicana | parasite growth, Giemsa stain count | C57BL/6 mouse bone marrow-derived macrophages, amastigotes | 48 h |  | IC50 | 1.4 µM |
| C[C@H](NC(=O)[C@H](CCCNC(=N)N)NC(=O)[C@H](Cc1c[nH]c2ccccc12)NC(=O)[C@H](CCCNC(=N)N)NC(=O)[C@H](Cc1c[nH]c2ccccc12)NC(=O)[C@H](Cc1c[nH]c2ccccc12)NC(=O)[C@H](Cc1c[nH]c2ccccc12)NC(=O)[C@H](CCCNC(=N)N)NC(=O)[C@H](Cc1c[nH]c2ccccc12)NC(=O)[C@H](CCCNC(=N)N)NC(=O)CN)C(N)=O | Candida albicans | broth microdilution | SP3931, RPMI 1640-MOPS | 48 h, 30 °C |  | MIC | 8 µM (≈ 13.6 µg/mL) |
| Cc1cc(Nc2nccc(C)n2)cc(-c2cnc([C@@]3(O)CC[C@H](C(=O)O)C(C)(C)C3)s2)c1 | murine hepatitis virus | viral replication, nanoluciferase reporter | DBT | 1 µM, 10 h | reference: DMSO vehicle | inhibition | -23% |
| CC[C@H](C)[C@H](NC(=O)CN)C(=O)NCC(=O)N[C@@H](C)C(=O)N[C@H](C(=O)N[C@@H](CC(C)C)C(=O)N[C@@H](CCCCN)C(=O)N[C@H](C(=O)N[C@@H](CC(C)C)C(=O)N[C@H](C(=O)N[C@H](C(=O)NCC(=O)N[C@@H](CC(C)C)C(=O)N1CCC[C@H]1C(=O)N[C@@H](C)C(=O)N[C@@H](CC(C)C)C(=O)N[C@H](C(=O)N[C@@H](CO)C(=O)N[C@@H](Cc1c[nH]c2ccccc12)C(=O)N[C@H](C(=O)N[C@@H](CCCCN)C(=O)N[C@@H](CCCNC(=N)N)C(=O)N[C@@H](CCCCN)C(=O)N[C@@H](CCCNC(=N)N)C(=O)N[C@@H](CCC(N)=O)C(=O)N[C@@H](CCC(N)=O)C(N)=O)[C@@H](C)CC)[C@@H](C)CC)[C@@H](C)O)[C@@H](C)O)C(C)C)C(C)C | Candida parapsilosis | broth microdilution | CGMCC 2.399, RPMI 1640-MOPS | 48 h, 30 °C |  | MIC | 4 µM (≈ 11.4 µg/mL) |
| O=C(NCc1cccc(O)c1)Nc1nc(-c2ccncc2)cs1 | murine hepatitis virus | viral replication, nanoluciferase reporter | DBT | 1 µM | reference: DMSO vehicle | inhibition | 13% |

Some of these lines once more:
| Compound | target or system | test | system | setting | scale | measurement | value |
| --- | --- | --- | --- | --- | --- | --- | --- |
| CNC(=O)c1ccc(Nc2ncc(C(F)(F)F)c(NCc3nccnc3N(C)S(C)(=O)=O)n2)cc1 | murine hepatitis virus | viral replication, nanoluciferase reporter | DBT | 1 µM | reference: DMSO vehicle | inhibition | 19% |
| CC1(C)CC(=O)c2c(C(F)(F)F)nn(-c3ccc(C(N)=O)c(N[C@H]4CC[C@H](O)CC4)c3)c2C1 | human alphaherpesvirus 1 |  | K26 GFP, 3D skin equivalent, air-liquid |  | reference: CC50 over IC50 | selectivity index | > 250 |
| CC(=O)C1=CC[C@H]2[C@@H]3C=CC4=CC(=O)CC[C@]4(C)[C@H]3C[C@@H](O)[C@]12C | Leishmania mexicana | parasite growth, propidium iodide flow cytometry | promastigotes | 48 h |  | IC50 | 26.2 µM |
| Cc1c2c(nn1C)CSCc1cc(n(C)n1)CSc1cc(c3ccccc3c1)OCCCc1c(C(=O)O)n(C)c3c-2c(Cl)ccc13 | Staphylococcus aureus | label-free proteomics, refers to: tdcB | SA113 | concentration not given | reference: untreated | log2 fold change | -4.7 |
| C[C@H](N)C(=O)NCC(=O)N[C@H]1CSSC[C@@H](C(=O)O)NC(=O)[C@H](CO)NC(=O)[C@H]([C@@H](C)O)NC(=O)[C@H](Cc2ccccc2)NC(=O)[C@H]([C@@H](C)O)NC(=O)[C@H](CCCCN)NC(=O)[C@H](Cc2c[nH]c3ccccc23)NC(=O)[C@H](Cc2ccccc2)NC(=O)[C@H](Cc2ccccc2)NC(=O)[C@H](CC(N)=O)NC(=O)[C@H](CCCCN)NC1=O | Aspergillus fumigatus | Alamar blue |  | 20 µM |  | metabolic activity | 100% |
